Published values collected from several papers.
Parts stem from different laboratories: compare values within a part only. Positions count from the first letter of the parent shown.

Sample 1
Target: Protein max, full length (MAX, Homo sapiens, UniProt P61244-2, residues 1-151)
Technique: protein-binding microarray
Molecule type: double-stranded DNA, one strand shown
Medium: in vitro
Tested at: not given
Setting: k-mer, scored over probes, only values ≥0.25
Reading: higher = stronger binding
Oligonucleotide	E-score
AGCGTGAG	0.316
ATAACGTG	0.382
CATGCAGA	0.307
ACGGGGCG	0.268
AAACGTGG	0.426
ACGTGCTC	0.456
GACCACGA	0.339
ACATGCCT	0.38
ACGCGGAG	0.255
GAACATGC	0.369
CCGCCCCG	0.275
ACGTGGTC	0.443
ACTACACG	0.322

Sample 2
Target: Phosphate system positive regulatory protein PHO4, full length, GST-tagged (PHO4, Saccharomyces cerevisiae, UniProt P07270, residues 1-312)
Technique: competition protein-binding microarray
Molecule type: double-stranded DNA, one strand shown
Medium: in vitro
Tested at: 2 µM
Setting: whole 60-bp probe, lowest competitor level
With: Cbf1 competitor, 0.05 µM
Reading: higher = stronger binding
All sequences stand within: … GTCTTGATTCGCTTGACGCTGCTG
Construct (chain): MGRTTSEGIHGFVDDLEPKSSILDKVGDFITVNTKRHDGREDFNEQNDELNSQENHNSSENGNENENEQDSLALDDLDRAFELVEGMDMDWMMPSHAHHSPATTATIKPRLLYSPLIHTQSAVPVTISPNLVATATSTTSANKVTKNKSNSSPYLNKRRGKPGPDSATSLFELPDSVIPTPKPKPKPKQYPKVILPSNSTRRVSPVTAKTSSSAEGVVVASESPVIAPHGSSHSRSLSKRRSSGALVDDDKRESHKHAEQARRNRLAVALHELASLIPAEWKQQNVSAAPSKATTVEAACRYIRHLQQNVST
Oligonucleotide	fluorescence intensity [a.u.]
CTCAAACGAAGAAAGCACGTGAGGATTGAAGAAAAA	16700
ATCGACTCTCCTTGTCACGTTGACTTCTCCTCTGAA	9710
GTCTTGTCTCATTGTGTGGTGGGTGTCCCCACTTCA	5280
TGCGCAACAACTTGTTATGTGGGTGTATGTCTAGAA	4810
GTCTTGTCTCATTGTCACGCAACTTTCCCCACTTCA	5360
CGGTCAGCCAACTGGCACGTGGTGAGTGTGCCTGGA	21800
CTTTTGATACTCAAATTCGTGCCGAACCGGGAAAGA	5410
CATACCCAACCTTGTCACTTCACTTAAGATATTTGT	3690
CTTTCCCGATCTTGGGGCGTGGGTGTAGCACATTTG	11000
TAGTTGTGCCTCGACCACGTGAGAAGGCGGTATTCA	14900
ACTCTAAGGTTATAGCATGTGCTATTGATAACCCAG	11600
GTTGCTTGCTAATTGCATGATCAAGTTGAGCCGATG	4200
CACTACGGTCTTAGATTCGTGCGATTTCCGGCTACC	5300
AAAGCGGTAATTTGAGGAGTGGGTGCAGATATCTAT	5170
CCAGGGCCAGAGGGGCACGTGGCGCCGGTGAGTGGC	21000
CTAACGAAGGTTTGTCACCTTACTTACAAGCCAAGT	3310

Sample 3
Target: Interferon regulatory factor 7, full length, phosphomimetic (IRF7, Homo sapiens, UniProt Q92985, residues 1-503, S471D/S472D/S475D/S476D/S477D/S483D/S484D/S487D)
Technique: protein-binding microarray
Molecule type: double-stranded DNA, one strand shown
Medium: in vitro
Tested at: 2200 nM top
Setting: 60-bp whole probe
With: salmon DNA 0.4 mg/ml
Reference: random background probes
Reading: higher = stronger binding
All sequences stand within: GCCTAGCAC … GTCTTGATTCGCTTGACGCTGCTG
Construct (chain): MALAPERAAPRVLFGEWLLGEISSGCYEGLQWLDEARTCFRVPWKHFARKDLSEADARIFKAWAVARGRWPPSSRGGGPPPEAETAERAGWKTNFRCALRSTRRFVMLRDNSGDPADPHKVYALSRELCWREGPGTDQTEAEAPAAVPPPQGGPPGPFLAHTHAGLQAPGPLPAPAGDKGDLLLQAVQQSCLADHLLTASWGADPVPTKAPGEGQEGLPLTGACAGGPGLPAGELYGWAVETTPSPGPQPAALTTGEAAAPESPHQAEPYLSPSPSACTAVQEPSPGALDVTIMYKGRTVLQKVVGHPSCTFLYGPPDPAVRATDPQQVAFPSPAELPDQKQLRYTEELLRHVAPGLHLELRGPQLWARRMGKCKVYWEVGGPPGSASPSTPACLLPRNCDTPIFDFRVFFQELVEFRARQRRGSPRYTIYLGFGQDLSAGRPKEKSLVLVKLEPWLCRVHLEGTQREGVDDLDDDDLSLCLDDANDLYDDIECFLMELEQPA
Oligonucleotide	fitted relative affinity
TTAGGTTTCGGGACTGGGCTAGTGCTA	3.11 z-score
CTCATTCTCTGCTTGCGTCTGTGCTAG	2.22 z-score
GACGGTATCGACTACCGGGACGTGCTA	-0.207 z-score
GACGGTTGCCTACTGCTGACGTGCTAG	0.171 z-score
TTAGGTTTCAGTTTCGGTTAGTGCTAG	11.5 z-score
TTAGGTTTCCTTTCCGTTTAGTGCTAG	5.66 z-score
TTAGGTTCCGCTTTCGGTTAGTGCTAG	9.04 z-score
AGGAGTATTTATCTGCAAAGGTGCTAG	-0.0899 z-score
GCTGGTCACTCTCTGGGCTGGTGCTAG	-0.149 z-score
GACGGTTTCCCTATCCTGACGTGCTAG	3.19 z-score
GACGCACTGGGTTTCGGGACGTGCTAG	1.55 z-score
TTAGGTTTCGGGTTTCGGATAGTGCTA	9.69 z-score
TTATATATCGGGTTTCGATTAGTGCTA	3.13 z-score

Sample 4
Target: ATP-dependent RNA helicase DDX3X, helicase core (DDX3X, Homo sapiens, UniProt O00571, residues 132-607)
UniProt O00571, sequence (132-607, looked up): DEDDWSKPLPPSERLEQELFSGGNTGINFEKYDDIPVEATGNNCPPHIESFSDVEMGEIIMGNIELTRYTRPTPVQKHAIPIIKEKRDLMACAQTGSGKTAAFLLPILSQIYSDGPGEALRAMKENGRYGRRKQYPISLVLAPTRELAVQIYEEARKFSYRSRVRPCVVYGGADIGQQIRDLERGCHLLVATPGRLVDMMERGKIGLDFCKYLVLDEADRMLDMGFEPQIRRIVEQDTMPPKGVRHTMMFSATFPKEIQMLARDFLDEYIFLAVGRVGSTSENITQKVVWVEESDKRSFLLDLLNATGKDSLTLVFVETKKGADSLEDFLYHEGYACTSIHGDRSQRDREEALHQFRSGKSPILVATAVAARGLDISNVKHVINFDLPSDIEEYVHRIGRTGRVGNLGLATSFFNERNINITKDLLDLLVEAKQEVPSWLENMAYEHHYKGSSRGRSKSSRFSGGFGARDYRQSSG
Technique: RNA Bind-n-Seq
Molecule type: RNA
Medium: in vitro
Tested at: 90 pmol
Setting: 4-mer, random 30-nt RNA, single round
With: 3 µM DMDA-PatA, 2 mM ADP, 2 mM phosphate
Reference: input library
Reading: higher = stronger binding
Oligonucleotide	4-mer enrichment
UCUA	0.849 fold
CAGU	0.912 fold
UUAG	1.03 fold
UGGG	1.15 fold
CCCU	1.03 fold
UUGU	1.02 fold
ACAC	1.01 fold
GUCG	0.994 fold
GCCG	0.892 fold
ACGA	0.934 fold
GUAA	1.1 fold
CGAG	1.2 fold

Sample 5
Target: Histone acetyltransferase KAT6A, winged helix 2, GST fusion (KAT6A, Homo sapiens, UniProt Q92794, residues 85-181)
Technique: protein binding microarray
Molecule type: double-stranded DNA, one strand shown
Medium: in vitro
Tested at: not given
Setting: 8-mer, flanks averaged, mean of 2 arrays, mostly near background
Reference: not given
Reading: higher = stronger binding
Residues (chain): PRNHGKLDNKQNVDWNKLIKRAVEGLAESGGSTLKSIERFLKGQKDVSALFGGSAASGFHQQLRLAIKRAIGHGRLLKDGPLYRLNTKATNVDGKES
Oligonucleotide	E-score
CATTCCGA	0.0784
CAGTGCAG	0.119
ATCCTCTG	-0.11
ACGCGTCG	0.0385
ATACATGC	-0.253
AAAGTGAA	-0.078
CATCGGAG	0.0127
ATACAGAA	0.0468
TGTAAAAA	-0.0076
GCTCGCAA	0.108
CGGTCGGA	0.00125
GCAGCACA	0.0464
CACAATAC	-0.171

Sample 6
Target: Sal-like protein 4, full length isoform B (SALL4, Homo sapiens, UniProt Q9UJQ4-2, residues 1-616)
Technique: universal PBM
Molecule type: double-stranded DNA, one strand shown
Medium: in vitro
Tested at: not given
Setting: 8-mer, flanks averaged, mean of replicates
Reading: higher = stronger binding
Target sequence (chain): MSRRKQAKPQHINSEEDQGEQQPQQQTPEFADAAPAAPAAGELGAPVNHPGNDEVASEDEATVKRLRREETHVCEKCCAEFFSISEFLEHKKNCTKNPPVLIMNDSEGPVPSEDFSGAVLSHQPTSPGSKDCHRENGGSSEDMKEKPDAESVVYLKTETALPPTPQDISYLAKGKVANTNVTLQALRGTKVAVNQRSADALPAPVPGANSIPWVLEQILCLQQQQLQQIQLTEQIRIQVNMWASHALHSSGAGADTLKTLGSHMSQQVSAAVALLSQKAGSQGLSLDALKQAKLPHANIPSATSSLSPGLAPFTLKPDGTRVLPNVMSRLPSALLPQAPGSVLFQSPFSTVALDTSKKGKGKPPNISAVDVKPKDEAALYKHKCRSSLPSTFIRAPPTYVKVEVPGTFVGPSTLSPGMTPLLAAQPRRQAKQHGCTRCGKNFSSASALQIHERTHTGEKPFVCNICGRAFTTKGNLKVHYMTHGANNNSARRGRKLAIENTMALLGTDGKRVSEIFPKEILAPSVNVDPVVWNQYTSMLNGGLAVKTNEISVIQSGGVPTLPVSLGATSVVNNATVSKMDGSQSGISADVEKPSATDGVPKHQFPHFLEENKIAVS
Oligonucleotide	E-score
GGTTGCAC	-0.212
AAGGATTC	-0.144
CCGATTTC	-0.213
TCTCAGCA	-0.125
CAAGGTTA	-0.0883
CTGGATAC	-0.0434
CGGGCCAA	-0.298
AGATGCCA	-0.059
ATGCGCGG	-0.263
CACCTCCA	0.0147
CAGTTGGA	-0.0889
AGAGGTAA	0.098
AACGCCAC	-0.233
CCCCAGTA	-0.0328
CTAGAAAC	-0.0708
AATGCACG	0.023

Sample 7
Target: ABI1, truncated, D143A, DHFR fusion (Arabidopsis thaliana)
Technique: DHFR PCA, deep sequencing
Medium: yeast
Setting: methotrexate growth selection, single substitutions
With: (+)-ABA 2500 µM
Reference: wild-type fitted maximum
Reading: higher = stronger binding
Starting sequence: PYL1, truncated, DHFR fusion (Arabidopsis thaliana); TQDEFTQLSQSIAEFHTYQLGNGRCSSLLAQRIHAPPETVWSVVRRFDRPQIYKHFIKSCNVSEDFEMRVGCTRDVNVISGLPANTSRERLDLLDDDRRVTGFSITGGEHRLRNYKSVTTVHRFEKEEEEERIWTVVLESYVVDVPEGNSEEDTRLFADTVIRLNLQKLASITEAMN; partner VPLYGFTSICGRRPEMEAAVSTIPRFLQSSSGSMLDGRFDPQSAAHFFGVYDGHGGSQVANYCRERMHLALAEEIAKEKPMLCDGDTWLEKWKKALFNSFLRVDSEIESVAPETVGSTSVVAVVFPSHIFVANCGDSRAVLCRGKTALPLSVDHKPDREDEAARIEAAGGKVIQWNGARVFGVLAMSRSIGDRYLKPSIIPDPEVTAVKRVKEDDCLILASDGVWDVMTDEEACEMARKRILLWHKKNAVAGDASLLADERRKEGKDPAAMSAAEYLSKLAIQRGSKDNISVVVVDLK
Change	relative binding score [%]
A158E	-3.69
E64H	98
I79H	96.1
E152H	93
I79N	93.2
Q167Y	87.3
D96A	87.3
F124A	104
G108A	80
D96N	97
I52S	98.6
I172W	89.2
L20D	95
V136A	88.2
A35E	75.9

Some of these lines once more (sample 3):
Oligonucleotide	fitted relative affinity
TTAGGTTTCGGGACTGGGCTAGTGCTA	3.11 z-score
CTCATTCTCTGCTTGCGTCTGTGCTAG	2.22 z-score
GACGGTATCGACTACCGGGACGTGCTA	-0.207 z-score
GACGGTTGCCTACTGCTGACGTGCTAG	0.171 z-score
TTAGGTTTCAGTTTCGGTTAGTGCTAG	11.5 z-score
TTAGGTTTCCTTTCCGTTTAGTGCTAG	5.66 z-score
